Published values from different studies.
Parts stem from different laboratories: compare values within a part only. Substitutions count along the parent as printed.

Series 1
Target: CCNA2, cyclin fold, Cln2 fusion (human)
Technique: yeast growth competition, sequencing
Sample: yeast
Setting: weak parent motif
Relative to: not given
Direction: higher = stronger binding
Starting sequence: MASTL docking peptide (human); PMIAKNLMCELDE
Under “normalised enrichment score”, `D12F` is recorded as 0.605.
For `N6A`, “normalised enrichment score” read -0.166.
`C9A` — result for “normalised enrichment score”: 0.0307.
`M8W`: “normalised enrichment score” 0.171.
`C9Q` — result for “normalised enrichment score”: 0.131.
`M8N` — result for “normalised enrichment score”: -0.303.
`K5A`: “normalised enrichment score” -0.303.
`D12G`: “normalised enrichment score” 0.0829.
`M2G`: “normalised enrichment score” 0.235.
Under “normalised enrichment score”, `K5T` is recorded as -0.453.
For `I3C`, “normalised enrichment score” read 1.33.
For `I3D`, “normalised enrichment score” read -0.63.
`L7R` — result for “normalised enrichment score”: 0.155.
For `N6M`, “normalised enrichment score” read 0.0283.
`N6Y` — result for “normalised enrichment score”: 0.0864.
`M2N` — result for “normalised enrichment score”: -0.11.
`D12M` — result for “normalised enrichment score”: 0.319.
Under “normalised enrichment score”, `C9S` is recorded as 0.0438.
`K5G` — result for “normalised enrichment score”: -0.608.
`C9L`: “normalised enrichment score” -0.143.
`L11P`: “normalised enrichment score” -0.32.
`M2H`: “normalised enrichment score” -0.153.
`A4N`: “normalised enrichment score” 0.311.
For `N6F`, “normalised enrichment score” read -0.222.
`L11Q`: “normalised enrichment score” -0.0646.

Series 2
Target: ABI1, truncated, D143A, DHFR fusion (Arabidopsis thaliana)
Technique: DHFR PCA, deep sequencing
Sample: yeast
Setting: methotrexate growth selection, single substitutions
Added: (+)-ABA 2500 µM
Relative to: wild-type fitted maximum
Direction: higher = stronger binding
Starting sequence: PYL1, truncated, DHFR fusion (Arabidopsis thaliana); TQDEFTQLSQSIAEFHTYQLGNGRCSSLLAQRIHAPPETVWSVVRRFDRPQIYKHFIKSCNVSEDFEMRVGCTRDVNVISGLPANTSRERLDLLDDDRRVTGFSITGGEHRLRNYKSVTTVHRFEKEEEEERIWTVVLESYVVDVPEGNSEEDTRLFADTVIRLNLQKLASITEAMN; partner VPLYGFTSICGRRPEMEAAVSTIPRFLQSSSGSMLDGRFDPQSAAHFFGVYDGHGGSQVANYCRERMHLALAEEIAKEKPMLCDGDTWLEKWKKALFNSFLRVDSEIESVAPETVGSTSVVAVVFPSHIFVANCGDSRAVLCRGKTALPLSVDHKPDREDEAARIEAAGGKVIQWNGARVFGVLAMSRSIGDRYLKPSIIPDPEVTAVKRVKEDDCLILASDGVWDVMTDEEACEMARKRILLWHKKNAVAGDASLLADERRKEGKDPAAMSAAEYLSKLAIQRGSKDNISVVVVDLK
`C25W`: “relative binding score” 74.7%.
Under “relative binding score”, `N177W` is recorded as 81.6%.
Under “relative binding score”, `G71V` is recorded as 32.2%.
For `L8G`, “relative binding score” read 86.4%.
`A175M`: “relative binding score” 93%.
For `C60S`, “relative binding score” read 86.8%.
`C72P` — result for “relative binding score”: 62.4%.
Under “relative binding score”, `Y115W` is recorded as 88.2%.
Under “relative binding score”, `S140T` is recorded as 53.7%.
`G107R`: “relative binding score” 92.9%.
For `T17V`, “relative binding score” read 92.8%.
`C25E` — result for “relative binding score”: 65.9%.
`R99N` — result for “relative binding score”: 99.2%.
For `V118L`, “relative binding score” read 101%.
For `F157T`, “relative binding score” read 56%.
For `S9F`, “relative binding score” read 97.5%.
`E109M`: “relative binding score” 101%.
Under “relative binding score”, `S11D` is recorded as 99.2%.
`R123Q`: “relative binding score” 98.5%.
`Y53F`: “relative binding score” 94.4%.
Under “relative binding score”, `E38F` is recorded as 80.6%.
Under “relative binding score”, `G23L` is recorded as 94.2%.
`K58V`: “relative binding score” 87.6%.
`M68R`: “relative binding score” 90%.
Under “relative binding score”, `T119S` is recorded as 92.9%.

Series 3
Target: Myc proto-oncogene protein, bHLH-zipper, MAX partner unstated (MYC, Homo sapiens, UniProt P01106, residues 368-449)
Sequence of UniProt P01106 (368-449, looked up): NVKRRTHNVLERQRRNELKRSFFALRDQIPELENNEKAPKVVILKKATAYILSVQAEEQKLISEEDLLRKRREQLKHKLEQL
Technique: protein-binding microarray
Form: double-stranded DNA, one strand shown
Sample: in vitro
Tested at: not given
Setting: k-mer, scored over probes, only values ≥0.25
Direction: higher = stronger binding
For `ACATGTAT`, the E-score was 0.346.
`AAGCACGA` gave an E-score of 0.294.
With `GAACACAC` the E-score was 0.262.
The E-score of `CACGTCCC` is reported as 0.253.
For `CCATGCCA`, the E-score was 0.356.
`ACGTGGTG` has an E-score of 0.45.
The E-score of `GTGGCATA` is reported as 0.252.
For `ACACGCTG`, the E-score was 0.412.
For `GTGCGCAC`, the E-score was 0.366.
For `ACCACCAC`, the E-score was 0.303.
For `CACCTCGC`, the E-score was 0.27.
`CACATGCC` gave an E-score of 0.445.
For `ACATGGAA`, the E-score was 0.335.
`ACCCGCCC` gave an E-score of 0.364.
`CAAACATG` gave an E-score of 0.264.
`CACGACCA` gave an E-score of 0.288.
`CGGCATGC` gave an E-score of 0.408.
For `GCGGTCAC`, the E-score was 0.264.

Series 4
Target: Histone acetyltransferase KAT6A, winged helix 1, GST fusion (KAT6A, Homo sapiens, UniProt Q92794, residues 1-85)
Technique: protein binding microarray
Form: double-stranded DNA, one strand shown
Sample: in vitro
Tested at: not given
Setting: 8-mer, flanks averaged, mean of 2 arrays, mostly near background
Relative to: not given
Direction: higher = stronger binding
Construct (chain): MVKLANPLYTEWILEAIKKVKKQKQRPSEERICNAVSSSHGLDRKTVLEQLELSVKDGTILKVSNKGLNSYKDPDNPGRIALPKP
The E-score of `GACCGGTA` is reported as 0.194.
`ACCTTACC` has an E-score of -0.0855.
The E-score of `GACGTTGA` is reported as -0.127.
For `ACTCTGGG`, the E-score was -0.207.
`AAGCACTA` gave an E-score of -0.259.
`CGTATCAC` has an E-score of 0.181.
With `CGGGATTA` the E-score was 0.336.
The E-score of `AGCAGTGA` is reported as -0.118.
`AATTTCAA` gave an E-score of -0.237.
With `GCACTGCC` the E-score was 0.182.
`AACAAGCG` has an E-score of 0.123.
With `ACACGGGT` the E-score was 0.174.
The E-score of `CTGCAAAC` is reported as -0.218.
For `ATCAACGA`, the E-score was -0.142.
`CCACCACA` has an E-score of -0.271.
For `AAGGTGCA`, the E-score was -0.231.
For `GGAGTGAA`, the E-score was -0.0988.
For `ACGGCCAC`, the E-score was 0.295.
`ACATACTA` gave an E-score of -0.0903.
`ATCAAGGG` gave an E-score of -0.0659.
`CCAAAGGC` gave an E-score of 0.0138.
The E-score of `AGCCATAA` is reported as -0.00865.

Series 5
Target: BATF3, bZIP domain (human)
Technique: DHFR protein complementation
Sample: yeast
Setting: single substitutions, most at no-binding floor
Relative to: wild-type JUN-FOS pair
Direction: higher = stronger binding
Starting sequence: JUN, bZIP domain (human); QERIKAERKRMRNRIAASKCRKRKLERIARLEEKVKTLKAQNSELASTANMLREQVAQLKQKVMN; partner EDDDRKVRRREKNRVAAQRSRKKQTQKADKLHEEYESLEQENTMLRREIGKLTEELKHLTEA
For `E32Y`, the binding fitness was 0.0833 natural log.
With `E33T` the binding fitness was 0.148 natural log.
With `E54Q` the binding fitness was -0.0732 natural log.
`E32R` has a binding fitness of 0.201 natural log.
`S47F` gave a binding fitness of 0.223 natural log.
`N42Q` gave a binding fitness of 0.0647 natural log.
With `S43K` the binding fitness was 0.314 natural log.
The binding fitness of `A40L` is reported as 0.137 natural log.
`L52P` has a binding fitness of -0.885 natural log.
With `L31M` the binding fitness was 0.24 natural log.
`A49N` gave a binding fitness of -0.228 natural log.
With `L31G` the binding fitness was -0.033 natural log.
For `Q55L`, the binding fitness was -0.0135 natural log.
`T37N` gave a binding fitness of 0.289 natural log.
For `R30Y`, the binding fitness was 0.126 natural log.
With `T37K` the binding fitness was 0.244 natural log.
`K39N` gave a binding fitness of 0.0114 natural log.

Other studies, line by line
`PhoQ, residues 284 288 289 292 302 303 SCCLKL` has a fold induction of 5.08 (PhoP, residues 12 14 15 18 19 NQGLL (Escherichia coli, UniProt P23836); Sort-seq, measured: YFP reporter; E. coli; PhoQ-PhoP variant library, added: 10 µM Mg2+; relative to: high Mg2+ state, higher = stronger signaling).

A few entries again (series 1):
`M2N` — result for “normalised enrichment score”: -0.11.
`D12M` — result for “normalised enrichment score”: 0.319.
Under “normalised enrichment score”, `C9S` is recorded as 0.0438.
`K5G` — result for “normalised enrichment score”: -0.608.
`C9L`: “normalised enrichment score” -0.143.
`L11P`: “normalised enrichment score” -0.32.
`M2H`: “normalised enrichment score” -0.153.
`A4N`: “normalised enrichment score” 0.311.
